# Measured values pooled from the literature.
# Protein sequences, listed by entry. Tags and fused reporters are not part of them. Residues count along the entry.
# UniProt P33535, whole entry K303E: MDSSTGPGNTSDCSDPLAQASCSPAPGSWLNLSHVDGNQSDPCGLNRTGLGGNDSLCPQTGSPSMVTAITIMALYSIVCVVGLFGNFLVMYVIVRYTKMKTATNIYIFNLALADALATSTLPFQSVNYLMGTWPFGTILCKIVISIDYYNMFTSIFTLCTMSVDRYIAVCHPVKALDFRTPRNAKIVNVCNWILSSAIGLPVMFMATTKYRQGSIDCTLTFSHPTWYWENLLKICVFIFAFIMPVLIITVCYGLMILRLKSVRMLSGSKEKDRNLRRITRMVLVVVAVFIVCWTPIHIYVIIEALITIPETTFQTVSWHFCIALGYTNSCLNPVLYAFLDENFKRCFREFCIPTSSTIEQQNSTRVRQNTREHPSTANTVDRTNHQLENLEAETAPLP
# UniProt P37571, 1-150 limits assumed: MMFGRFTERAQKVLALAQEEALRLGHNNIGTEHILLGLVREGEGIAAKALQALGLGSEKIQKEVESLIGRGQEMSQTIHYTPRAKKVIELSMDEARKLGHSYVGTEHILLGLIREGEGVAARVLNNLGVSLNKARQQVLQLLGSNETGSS
# UniProt Q8IEG9, whole entry, looked up: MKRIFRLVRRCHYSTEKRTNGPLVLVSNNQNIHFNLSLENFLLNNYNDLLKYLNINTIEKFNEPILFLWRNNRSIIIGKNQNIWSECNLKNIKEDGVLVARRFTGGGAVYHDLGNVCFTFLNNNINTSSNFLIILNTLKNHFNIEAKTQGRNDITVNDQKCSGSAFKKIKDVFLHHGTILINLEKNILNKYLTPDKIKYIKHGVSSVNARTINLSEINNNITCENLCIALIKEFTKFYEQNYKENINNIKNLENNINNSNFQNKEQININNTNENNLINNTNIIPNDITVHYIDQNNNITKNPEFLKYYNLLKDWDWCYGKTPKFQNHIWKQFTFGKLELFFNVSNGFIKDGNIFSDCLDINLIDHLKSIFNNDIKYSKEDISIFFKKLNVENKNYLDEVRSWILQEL
# UniProt P48329, whole entry, looked up: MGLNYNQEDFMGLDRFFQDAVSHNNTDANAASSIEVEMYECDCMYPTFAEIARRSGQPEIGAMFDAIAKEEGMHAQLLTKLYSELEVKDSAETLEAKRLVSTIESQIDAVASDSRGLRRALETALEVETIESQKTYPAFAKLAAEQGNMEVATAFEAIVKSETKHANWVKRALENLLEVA
# UniProt B0JCV9, 1-390: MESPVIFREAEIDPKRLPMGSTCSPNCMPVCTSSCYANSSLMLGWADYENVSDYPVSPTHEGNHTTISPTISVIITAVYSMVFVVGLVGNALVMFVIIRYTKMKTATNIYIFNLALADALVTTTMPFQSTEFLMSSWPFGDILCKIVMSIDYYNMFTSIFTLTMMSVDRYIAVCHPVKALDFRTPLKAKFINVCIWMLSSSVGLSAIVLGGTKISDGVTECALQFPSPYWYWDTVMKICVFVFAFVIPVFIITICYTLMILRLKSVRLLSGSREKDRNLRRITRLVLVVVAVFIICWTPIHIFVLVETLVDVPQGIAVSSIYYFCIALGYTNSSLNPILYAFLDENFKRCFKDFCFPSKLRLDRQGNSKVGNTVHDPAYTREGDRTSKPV
# UniProt P67660, whole entry K231A, looked up: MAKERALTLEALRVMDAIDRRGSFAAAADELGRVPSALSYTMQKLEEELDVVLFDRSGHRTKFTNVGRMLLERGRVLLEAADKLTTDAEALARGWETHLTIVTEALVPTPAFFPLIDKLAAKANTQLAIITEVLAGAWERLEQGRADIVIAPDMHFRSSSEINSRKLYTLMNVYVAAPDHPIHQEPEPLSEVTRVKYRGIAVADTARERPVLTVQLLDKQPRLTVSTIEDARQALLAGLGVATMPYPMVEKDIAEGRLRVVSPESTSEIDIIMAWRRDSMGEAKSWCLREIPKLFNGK
# UniProt P54582, whole entry G153D: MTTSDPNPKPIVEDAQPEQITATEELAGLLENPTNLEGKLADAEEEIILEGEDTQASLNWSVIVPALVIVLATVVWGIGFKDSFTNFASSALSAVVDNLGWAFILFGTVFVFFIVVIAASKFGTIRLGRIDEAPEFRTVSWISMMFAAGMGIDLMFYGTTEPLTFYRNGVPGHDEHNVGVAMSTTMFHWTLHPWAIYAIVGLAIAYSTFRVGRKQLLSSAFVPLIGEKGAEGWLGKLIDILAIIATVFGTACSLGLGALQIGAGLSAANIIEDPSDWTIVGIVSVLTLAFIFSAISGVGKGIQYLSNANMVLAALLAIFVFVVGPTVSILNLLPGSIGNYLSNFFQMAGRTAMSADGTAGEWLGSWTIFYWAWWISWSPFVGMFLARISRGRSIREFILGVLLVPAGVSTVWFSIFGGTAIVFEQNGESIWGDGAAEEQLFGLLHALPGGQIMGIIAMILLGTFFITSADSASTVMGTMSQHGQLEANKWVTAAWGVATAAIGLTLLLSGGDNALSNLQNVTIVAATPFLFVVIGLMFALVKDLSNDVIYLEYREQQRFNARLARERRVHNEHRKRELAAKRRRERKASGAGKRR
# UniProt Q08881, whole entry: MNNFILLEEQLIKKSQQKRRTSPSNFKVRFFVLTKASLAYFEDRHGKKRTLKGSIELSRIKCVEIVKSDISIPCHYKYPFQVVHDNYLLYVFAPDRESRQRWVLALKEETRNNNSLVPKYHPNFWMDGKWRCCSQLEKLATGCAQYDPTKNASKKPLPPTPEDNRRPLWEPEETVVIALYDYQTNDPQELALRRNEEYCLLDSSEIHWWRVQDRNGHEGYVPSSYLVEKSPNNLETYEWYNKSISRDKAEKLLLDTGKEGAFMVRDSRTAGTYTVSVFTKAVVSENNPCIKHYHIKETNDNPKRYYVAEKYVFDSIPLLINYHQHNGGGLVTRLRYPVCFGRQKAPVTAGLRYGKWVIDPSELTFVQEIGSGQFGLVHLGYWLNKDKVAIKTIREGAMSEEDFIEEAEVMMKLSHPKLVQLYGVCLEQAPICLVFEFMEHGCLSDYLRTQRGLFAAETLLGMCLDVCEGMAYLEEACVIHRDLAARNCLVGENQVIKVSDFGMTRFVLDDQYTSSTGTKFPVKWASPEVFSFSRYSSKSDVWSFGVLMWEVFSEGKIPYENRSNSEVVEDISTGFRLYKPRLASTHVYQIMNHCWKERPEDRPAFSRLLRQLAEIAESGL
# UniProt Q0P9J4, 1-485: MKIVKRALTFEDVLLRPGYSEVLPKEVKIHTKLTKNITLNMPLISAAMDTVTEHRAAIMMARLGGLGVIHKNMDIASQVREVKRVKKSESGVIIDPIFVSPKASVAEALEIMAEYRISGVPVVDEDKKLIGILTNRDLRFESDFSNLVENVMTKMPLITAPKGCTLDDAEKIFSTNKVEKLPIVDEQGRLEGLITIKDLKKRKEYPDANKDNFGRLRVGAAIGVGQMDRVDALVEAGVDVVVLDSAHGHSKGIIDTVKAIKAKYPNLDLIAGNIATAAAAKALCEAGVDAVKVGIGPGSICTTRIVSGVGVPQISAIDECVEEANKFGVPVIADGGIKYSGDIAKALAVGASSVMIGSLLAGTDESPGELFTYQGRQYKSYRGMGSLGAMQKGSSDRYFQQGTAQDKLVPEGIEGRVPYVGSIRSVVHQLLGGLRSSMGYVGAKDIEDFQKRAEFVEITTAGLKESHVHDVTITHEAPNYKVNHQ
# UniProt P20309, whole entry: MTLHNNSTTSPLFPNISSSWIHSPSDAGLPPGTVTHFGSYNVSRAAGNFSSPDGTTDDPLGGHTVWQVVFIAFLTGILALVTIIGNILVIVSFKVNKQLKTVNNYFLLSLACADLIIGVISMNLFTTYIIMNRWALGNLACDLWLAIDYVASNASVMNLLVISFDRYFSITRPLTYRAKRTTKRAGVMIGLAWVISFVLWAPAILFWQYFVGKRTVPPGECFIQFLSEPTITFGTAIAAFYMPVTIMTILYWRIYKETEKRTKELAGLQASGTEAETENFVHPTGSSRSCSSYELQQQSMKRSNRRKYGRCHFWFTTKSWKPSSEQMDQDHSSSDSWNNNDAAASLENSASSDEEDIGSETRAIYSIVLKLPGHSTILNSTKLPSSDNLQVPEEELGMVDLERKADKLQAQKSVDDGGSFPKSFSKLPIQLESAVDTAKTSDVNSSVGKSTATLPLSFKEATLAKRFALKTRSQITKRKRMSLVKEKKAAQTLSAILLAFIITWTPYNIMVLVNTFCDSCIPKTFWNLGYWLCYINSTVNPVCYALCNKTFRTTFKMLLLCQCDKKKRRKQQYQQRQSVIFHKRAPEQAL
# UniProt O25069, 1-549: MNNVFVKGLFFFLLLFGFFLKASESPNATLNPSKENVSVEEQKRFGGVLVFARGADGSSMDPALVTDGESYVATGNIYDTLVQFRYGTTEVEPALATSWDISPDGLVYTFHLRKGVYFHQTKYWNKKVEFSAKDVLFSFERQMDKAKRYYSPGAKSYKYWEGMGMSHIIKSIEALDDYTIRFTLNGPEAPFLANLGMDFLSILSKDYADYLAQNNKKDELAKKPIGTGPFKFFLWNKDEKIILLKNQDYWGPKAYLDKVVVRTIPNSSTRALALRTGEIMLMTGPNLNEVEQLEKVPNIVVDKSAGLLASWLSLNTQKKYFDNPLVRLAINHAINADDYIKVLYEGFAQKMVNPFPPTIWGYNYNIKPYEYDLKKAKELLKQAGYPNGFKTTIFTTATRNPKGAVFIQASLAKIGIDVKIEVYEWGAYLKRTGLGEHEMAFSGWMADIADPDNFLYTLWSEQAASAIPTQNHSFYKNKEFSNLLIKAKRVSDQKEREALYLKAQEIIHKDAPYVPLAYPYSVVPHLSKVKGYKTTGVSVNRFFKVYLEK
# UniProt A0A1D2IX29, 1-331: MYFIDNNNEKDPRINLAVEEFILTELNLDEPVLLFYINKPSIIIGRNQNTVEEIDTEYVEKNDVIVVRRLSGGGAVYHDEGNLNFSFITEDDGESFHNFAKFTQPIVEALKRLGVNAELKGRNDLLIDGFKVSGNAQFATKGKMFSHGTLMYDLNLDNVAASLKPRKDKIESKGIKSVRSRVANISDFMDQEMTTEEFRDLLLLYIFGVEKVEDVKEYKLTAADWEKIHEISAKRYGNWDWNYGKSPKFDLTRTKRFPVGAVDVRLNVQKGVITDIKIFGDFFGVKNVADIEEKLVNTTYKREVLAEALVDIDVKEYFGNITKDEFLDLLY
# UniProt P42866, whole entry: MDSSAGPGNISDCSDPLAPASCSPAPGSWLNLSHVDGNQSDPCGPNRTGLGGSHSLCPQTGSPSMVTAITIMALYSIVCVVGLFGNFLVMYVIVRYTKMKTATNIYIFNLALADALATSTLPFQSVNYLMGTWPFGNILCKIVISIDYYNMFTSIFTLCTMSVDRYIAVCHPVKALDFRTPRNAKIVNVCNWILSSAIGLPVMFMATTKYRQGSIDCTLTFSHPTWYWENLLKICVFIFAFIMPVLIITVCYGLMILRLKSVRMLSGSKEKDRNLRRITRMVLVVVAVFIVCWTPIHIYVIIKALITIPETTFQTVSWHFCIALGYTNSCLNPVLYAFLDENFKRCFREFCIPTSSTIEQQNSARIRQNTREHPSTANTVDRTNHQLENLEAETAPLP
# UniProt Q869C3, whole entry, looked up: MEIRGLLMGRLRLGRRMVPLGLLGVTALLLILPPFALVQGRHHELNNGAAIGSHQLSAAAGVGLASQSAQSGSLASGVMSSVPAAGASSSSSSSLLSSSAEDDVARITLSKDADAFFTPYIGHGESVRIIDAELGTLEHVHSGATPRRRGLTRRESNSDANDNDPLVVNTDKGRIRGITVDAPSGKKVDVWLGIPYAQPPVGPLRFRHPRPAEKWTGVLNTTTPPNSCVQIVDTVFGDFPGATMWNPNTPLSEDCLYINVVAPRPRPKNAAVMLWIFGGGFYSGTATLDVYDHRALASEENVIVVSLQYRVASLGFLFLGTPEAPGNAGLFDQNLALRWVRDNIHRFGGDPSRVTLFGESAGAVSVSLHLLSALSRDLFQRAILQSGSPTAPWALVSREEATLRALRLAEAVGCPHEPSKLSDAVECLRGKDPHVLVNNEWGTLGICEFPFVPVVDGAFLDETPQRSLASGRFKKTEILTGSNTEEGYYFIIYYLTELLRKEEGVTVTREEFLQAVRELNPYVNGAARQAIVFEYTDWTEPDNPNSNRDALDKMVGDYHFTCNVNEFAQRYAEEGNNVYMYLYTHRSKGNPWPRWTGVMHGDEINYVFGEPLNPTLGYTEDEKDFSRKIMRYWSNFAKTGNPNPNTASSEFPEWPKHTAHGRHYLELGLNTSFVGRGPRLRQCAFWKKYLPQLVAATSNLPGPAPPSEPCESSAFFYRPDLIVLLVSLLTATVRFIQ
# Lines come from different studies, so protocols differ. ± marks the error that the study gave.
Substance,tested on,test,system,setting,scale,endpoint,value
[3H]diprenorphine,"Oprm1 (Rattus norvegicus, UniProt P33535, K303E)","radioligand, saturation binding",N2a cell membranes,"1 h, pH 7.4, room temperature, added: [3H]diprenorphine",,Kd,0.00042 ± 0.00011 µM
neutrophil inhibitory factor,"ITGAM (Homo sapiens, UniProt P11215)","binding, solid-phase binding",,,,Kd,0.02 µM
N=C(NCCC[C@H](N)C(=O)O)NP(=O)(O)O,"Negative regulator of genetic competence ClpC/MecB (clpC, Bacillus subtilis, UniProt P37571)",isothermal titration calorimetry,,,,Kd,13 µM
O=C(O)CCCC[C@@H]1CCSS1,"Lipoate--protein ligase 1 (LipL1, Plasmodium falciparum, UniProt Q8IEG9)",isothermal titration calorimetry,,,,Kd,2.6 µM
CCN1CCN(Cc2ccc(NC(=O)c3ccc(C)c(/C=C/c4cnc5[nH]ccc5c4OC)c3)cc2C(F)(F)F)CC1,ETV6-PDGFRA fusion,"kinase-CDC37 interaction, inhibitor",human cells,5 µM,relative to: vehicle,log2 fold change,-0.904
CSc1nc(Cl)cc(Sc2nnc(-c3cc(C(F)(F)F)cc(C(F)(F)F)c3)[nH]2)n1,Acinetobacter baumannii,,ATCC 9955,no additive,,MIC,> 590 µg/mL
[N-]=[N+]=[N-],"Symerythrin (Cyanophora paradoxa, UniProt P48329)",UV-visible titration,,azide binding,,Kd,~60000 µM
CO[C@]12CC[C@@]3(C[C@@H]1C(C)(C)O)[C@H]1Cc4ccc(O)c5c4[C@@]3(CCN1CC1CC1)[C@H]2O5,"Kappa-type opioid receptor (Lithobates pipiens, UniProt B0JCV9)",radioligand saturation binding,HEK-293T transfected,frog kappa opioid receptor,,Kd,0.0012 ± 0.0003 µM
Cc1cc(O)ccc1O,"Probable HTH-type transcriptional regulator YhaJ, effector-binding domain (yhaJ, Escherichia coli, UniProt P67660, K231A)",microscale thermophoresis,,pH 7.5,,Kd,28500 ± 5400 µM
C[As+](C)(C)CCO,"betP (Corynebacterium glutamicum, UniProt P54582, G153D)","binding, tryptophan fluorescence titration","Corynebacterium glutamicum, proteoliposomes","pH 7.5, first binding phase, added: 100 mM NaCl",,Kd,1300 ± 70 µM
CC#C/C(=N\OC[C@H]1COCCN1)c1ccc2ncnc(Nc3ccc(OCc4cccc(F)c4)c(Cl)c3)c2c1,"ITK (Homo sapiens, UniProt Q08881)",kinase activity,,10 µM,,inhibition,8%
O=[N+]([O-])C1=CCCCC1,"onr (Enterobacter cloacae, UniProt P71278)",stopped-flow,,oxidative half-reaction,,Kd,6400 ± 700 µM
C[C@@H](Oc1cc[n+]([O-])c2ccccc12)c1cn(-c2ccc(Cl)cc2)nn1,"guaB (Campylobacter jejuni, UniProt Q0P9J4)","binding, biolayer interferometry",,"25 °C, added: IMP 1 mM, NAD+",,Kd,0.2 ± 0.018 µM
CCCN1CCN(c2ccc3c(c2)C2CC3CCN2C(=O)OCc2ccccc2)CC1 (stereo not shown),"CHRM3 (Homo sapiens, UniProt P20309)","binding, radioligand binding",,,,Ki,1.11 µM
C[C@H](NC(=O)[C@H](CO)NC(=O)[C@@H](NC(=O)[C@@H](N)CO)[C@@H](C)O)C(=O)O,"Dipeptide-binding protein DppA (Helicobacter pylori, UniProt O25069)",thermal shift,,"at To, unfolding equilibrium model",,Kd,29 ± 2 µM
CNC(=O)CCCCC1CCSS1 (stereo not shown),"Lipoate-protein ligase A1 (Listeria monocytogenes, UniProt A0A1D2IX29)",isothermal titration calorimetry,,,,Kd,15 µM
[3H]diprenorphine,"Oprm1 (Mus musculus, UniProt P42866)","radioligand, radioligand saturation binding","wild type mice, locus coeruleus homogenate",pH 7.4,,Kd,0.00046 ± 8e-05 µM
O=P(O)(O)O[C@H]1[C@H](OP(=O)(O)O)[C@@H](OP(=O)(O)O)[C@H](OP(=O)(O)O)[C@@H](OP(=O)(O)O)[C@H]1OP(=O)(O)O,"Toxin A (tcdA, Clostridioides difficile, UniProt P16154)","binding, radioligand binding",cysteine protease domain allosteric site,added: tritiated compound,,Kd,0.0626 ± 0.007 µM
CNC(=O)Oc1ccc2c(c1)[C@]1(C)CCN(C)[C@@H]1N2C,"Ace (Anopheles gambiae, UniProt Q869C3)","enzyme inhibition, inhibitor",,added: acetylthiocholine 600 µM,,Kd,0.26 ± 0.02 µM
